Experimental data pooled from the literature.
Parts stem from different laboratories: compare values within a part only.
UniProt Q9NQU5, sequence (whole entry, looked up): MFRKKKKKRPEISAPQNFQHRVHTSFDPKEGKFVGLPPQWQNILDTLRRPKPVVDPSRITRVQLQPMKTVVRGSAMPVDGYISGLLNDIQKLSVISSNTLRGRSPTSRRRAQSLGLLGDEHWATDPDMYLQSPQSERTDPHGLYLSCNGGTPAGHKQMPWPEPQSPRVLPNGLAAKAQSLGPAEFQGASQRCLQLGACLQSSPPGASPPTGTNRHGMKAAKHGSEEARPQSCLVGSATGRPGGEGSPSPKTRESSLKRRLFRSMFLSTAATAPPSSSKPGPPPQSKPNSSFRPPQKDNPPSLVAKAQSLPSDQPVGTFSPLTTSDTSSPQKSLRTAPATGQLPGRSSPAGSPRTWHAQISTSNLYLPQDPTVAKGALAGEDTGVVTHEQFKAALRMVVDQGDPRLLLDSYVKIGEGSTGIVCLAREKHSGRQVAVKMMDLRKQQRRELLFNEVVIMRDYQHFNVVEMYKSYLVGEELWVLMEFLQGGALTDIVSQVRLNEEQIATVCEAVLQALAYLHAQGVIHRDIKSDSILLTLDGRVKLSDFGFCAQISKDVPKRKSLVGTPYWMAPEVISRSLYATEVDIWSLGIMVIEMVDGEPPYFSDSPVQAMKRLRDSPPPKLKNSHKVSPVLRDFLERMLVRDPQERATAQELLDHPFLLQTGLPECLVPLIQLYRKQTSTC
UniProt Q9P286, sequence (whole entry, looked up): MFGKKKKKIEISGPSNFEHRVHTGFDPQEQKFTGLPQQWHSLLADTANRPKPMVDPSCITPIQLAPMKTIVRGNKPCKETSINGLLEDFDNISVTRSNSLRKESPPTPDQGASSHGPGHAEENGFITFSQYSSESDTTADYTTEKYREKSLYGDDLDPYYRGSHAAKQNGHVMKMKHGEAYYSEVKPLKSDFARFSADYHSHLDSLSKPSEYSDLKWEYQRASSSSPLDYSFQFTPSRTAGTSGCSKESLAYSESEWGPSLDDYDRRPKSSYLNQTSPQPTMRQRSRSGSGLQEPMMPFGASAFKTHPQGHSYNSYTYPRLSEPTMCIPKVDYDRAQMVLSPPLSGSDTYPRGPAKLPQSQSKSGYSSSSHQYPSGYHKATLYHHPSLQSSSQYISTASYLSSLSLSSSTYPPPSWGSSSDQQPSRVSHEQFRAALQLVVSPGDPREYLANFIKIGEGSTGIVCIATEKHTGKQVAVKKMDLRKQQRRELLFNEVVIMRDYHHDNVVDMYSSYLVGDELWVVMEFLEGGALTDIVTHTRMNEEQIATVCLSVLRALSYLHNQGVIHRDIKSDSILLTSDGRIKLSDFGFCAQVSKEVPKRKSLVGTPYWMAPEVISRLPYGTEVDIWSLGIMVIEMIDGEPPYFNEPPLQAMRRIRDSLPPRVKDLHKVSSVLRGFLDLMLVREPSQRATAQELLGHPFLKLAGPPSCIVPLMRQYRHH
UniProt Q16816, sequence (whole entry, looked up): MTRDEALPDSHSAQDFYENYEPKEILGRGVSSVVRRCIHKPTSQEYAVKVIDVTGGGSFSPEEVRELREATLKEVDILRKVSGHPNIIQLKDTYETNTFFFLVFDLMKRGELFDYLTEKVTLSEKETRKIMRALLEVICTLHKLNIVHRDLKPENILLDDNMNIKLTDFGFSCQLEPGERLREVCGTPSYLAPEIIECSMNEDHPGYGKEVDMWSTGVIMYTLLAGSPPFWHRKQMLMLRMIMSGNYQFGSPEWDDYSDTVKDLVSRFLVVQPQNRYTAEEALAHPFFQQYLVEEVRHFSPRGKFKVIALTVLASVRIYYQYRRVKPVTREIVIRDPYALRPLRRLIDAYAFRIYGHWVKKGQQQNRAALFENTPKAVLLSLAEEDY
UniProt Q9P0L2, sequence (whole entry, looked up): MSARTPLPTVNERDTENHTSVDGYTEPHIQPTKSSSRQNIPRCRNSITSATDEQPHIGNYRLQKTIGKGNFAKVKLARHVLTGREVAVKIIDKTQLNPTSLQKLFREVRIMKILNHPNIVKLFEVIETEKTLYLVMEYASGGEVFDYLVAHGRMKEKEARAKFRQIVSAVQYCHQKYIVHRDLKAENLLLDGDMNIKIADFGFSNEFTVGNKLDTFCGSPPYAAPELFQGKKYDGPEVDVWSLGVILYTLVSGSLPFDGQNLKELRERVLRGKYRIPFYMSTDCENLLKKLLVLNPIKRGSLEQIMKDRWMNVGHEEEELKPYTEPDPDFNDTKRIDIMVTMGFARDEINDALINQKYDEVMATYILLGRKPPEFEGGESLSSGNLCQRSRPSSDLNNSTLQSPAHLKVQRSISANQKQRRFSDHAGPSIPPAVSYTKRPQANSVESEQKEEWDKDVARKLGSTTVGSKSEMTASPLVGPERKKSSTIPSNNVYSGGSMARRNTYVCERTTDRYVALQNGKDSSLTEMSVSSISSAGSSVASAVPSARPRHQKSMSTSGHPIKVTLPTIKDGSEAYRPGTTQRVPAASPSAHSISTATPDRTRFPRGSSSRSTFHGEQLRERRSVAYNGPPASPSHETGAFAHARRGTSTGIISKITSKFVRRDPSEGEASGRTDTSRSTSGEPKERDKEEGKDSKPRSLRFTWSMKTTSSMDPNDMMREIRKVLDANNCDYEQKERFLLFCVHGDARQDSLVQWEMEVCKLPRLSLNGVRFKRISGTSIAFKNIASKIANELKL
UniProt P23458, sequence (whole entry, looked up): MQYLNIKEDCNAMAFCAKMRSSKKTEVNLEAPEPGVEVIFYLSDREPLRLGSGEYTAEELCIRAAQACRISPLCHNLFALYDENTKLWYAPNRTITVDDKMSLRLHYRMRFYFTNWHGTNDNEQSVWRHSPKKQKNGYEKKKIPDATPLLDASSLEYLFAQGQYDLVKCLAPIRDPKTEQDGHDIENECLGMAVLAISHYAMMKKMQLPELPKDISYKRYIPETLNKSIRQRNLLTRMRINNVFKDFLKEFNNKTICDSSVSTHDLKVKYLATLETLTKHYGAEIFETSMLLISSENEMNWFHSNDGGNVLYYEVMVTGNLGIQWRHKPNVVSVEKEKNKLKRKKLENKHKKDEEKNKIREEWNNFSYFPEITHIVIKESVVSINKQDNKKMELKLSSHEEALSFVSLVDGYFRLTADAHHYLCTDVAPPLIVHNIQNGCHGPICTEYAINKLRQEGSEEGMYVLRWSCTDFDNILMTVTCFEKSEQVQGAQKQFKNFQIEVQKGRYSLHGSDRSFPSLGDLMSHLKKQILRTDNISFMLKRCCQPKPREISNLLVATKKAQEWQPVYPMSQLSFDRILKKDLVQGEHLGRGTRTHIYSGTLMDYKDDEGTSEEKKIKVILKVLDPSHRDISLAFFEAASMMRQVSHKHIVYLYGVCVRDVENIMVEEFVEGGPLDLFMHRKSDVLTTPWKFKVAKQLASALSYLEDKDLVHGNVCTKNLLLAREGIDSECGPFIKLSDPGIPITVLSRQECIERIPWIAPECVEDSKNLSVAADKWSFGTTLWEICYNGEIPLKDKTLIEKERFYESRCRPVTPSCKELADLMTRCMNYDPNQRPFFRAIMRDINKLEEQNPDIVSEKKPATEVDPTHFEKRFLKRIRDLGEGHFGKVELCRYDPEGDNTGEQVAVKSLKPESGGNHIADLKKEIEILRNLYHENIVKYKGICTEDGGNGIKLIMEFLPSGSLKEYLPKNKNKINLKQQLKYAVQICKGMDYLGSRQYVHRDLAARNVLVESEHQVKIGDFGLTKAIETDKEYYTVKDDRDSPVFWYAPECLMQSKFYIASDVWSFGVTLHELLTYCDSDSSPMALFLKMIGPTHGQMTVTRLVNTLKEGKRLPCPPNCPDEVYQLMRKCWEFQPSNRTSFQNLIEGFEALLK
UniProt Q9BXA5, sequence (whole entry, looked up): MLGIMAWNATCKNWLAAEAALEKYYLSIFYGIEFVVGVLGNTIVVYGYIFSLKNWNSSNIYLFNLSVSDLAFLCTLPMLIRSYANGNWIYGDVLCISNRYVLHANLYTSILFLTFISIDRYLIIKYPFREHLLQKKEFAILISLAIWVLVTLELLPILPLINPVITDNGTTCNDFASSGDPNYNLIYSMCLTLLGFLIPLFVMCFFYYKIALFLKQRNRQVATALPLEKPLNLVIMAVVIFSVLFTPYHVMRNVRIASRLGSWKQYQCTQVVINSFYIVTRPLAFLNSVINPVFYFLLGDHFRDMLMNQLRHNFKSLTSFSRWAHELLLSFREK
UniProt P49759, sequence (whole entry, looked up): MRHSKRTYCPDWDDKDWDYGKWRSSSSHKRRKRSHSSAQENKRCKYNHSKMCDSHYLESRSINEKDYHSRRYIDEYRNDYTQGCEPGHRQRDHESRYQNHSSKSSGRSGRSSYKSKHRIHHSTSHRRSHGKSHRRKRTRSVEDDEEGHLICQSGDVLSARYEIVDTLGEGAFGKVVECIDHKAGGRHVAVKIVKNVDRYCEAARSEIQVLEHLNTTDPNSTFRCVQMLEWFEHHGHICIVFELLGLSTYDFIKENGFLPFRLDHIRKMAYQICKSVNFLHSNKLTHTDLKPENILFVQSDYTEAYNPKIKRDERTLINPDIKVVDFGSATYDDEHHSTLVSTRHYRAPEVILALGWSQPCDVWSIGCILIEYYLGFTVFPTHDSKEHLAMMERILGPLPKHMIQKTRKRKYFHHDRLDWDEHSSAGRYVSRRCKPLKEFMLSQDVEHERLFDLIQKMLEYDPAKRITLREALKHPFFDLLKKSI
UniProt Q9UBS0, sequence (whole entry, looked up): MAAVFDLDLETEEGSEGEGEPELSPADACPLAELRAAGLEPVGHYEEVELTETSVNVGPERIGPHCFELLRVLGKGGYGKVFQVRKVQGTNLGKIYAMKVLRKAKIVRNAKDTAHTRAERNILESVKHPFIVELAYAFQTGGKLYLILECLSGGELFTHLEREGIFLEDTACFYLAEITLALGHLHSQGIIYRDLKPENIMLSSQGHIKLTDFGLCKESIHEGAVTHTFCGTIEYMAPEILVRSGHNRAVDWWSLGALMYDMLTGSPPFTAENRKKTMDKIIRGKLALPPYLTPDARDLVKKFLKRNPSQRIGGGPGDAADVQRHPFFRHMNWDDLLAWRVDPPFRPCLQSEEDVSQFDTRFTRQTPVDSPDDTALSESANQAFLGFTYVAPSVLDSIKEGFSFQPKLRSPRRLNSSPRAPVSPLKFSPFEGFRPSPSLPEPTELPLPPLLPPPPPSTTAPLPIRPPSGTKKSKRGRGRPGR

Sample 1
Cell line: HaCaT
Tested at: 100 µM
Time: 18 h
SMILES | viability [%]
CNNCc1ccc(C(=O)NC(C)C)cc1 | 112
CC(C)N(CCCCOCC(=O)NS(C)(=O)=O)c1cnc(-c2ccccc2)c(-c2ccccc2)n1 | 67.4
COc1cc(/C=C/C(=O)O)ccc1O | 97.8
CSCC1CN(/N=C/c2ccc([N+](=O)[O-])o2)C(=O)O1 (stereo not drawn) | 65.4
CNCC[C@@H](Oc1ccccc1C)c1ccccc1 | 77
CCOc1cc([C@@H](CS(C)(=O)=O)N2C(=O)c3cccc(NC(C)=O)c3C2=O)ccc1OC | 96.3
Cc1onc(-c2ccccc2Cl)c1C(=O)N[C@@H]1C(=O)N2[C@@H]1SC(C)(C)[C@@H]2C(=O)O | 108
O=c1oc2ccccc2c(O)c1Cc1c(O)c2ccccc2oc1=O | 40.5
Nc1c(Br)cc(Br)cc1CN[C@H]1CC[C@H](O)CC1 | 106
Cc1ccc(-c2cc(C(F)(F)F)nn2-c2ccc(S(N)(=O)=O)cc2)cc1 | 15.4
O=C(O)CCn1c2c(c3ccccc31)C[C@H](NS(=O)(=O)c1ccc(F)cc1)CC2 | 84.6

Sample 2
SMILES: O=C(Nc1ccc(Cl)cc1)c1ccccc1NCc1ccncc1
Read-out: enzyme activity
Action: inhibitor
Tested at: 0.5 µM
Baseline: control
target | remaining activity [%]
RPS6KB2 (Homo sapiens, UniProt Q9UBS0) | 105
TEC (Homo sapiens, UniProt P42680) | 134
MUSK (Homo sapiens, UniProt O15146) | 95.9
SGK2 (Homo sapiens, UniProt Q9HBY8) | 103
ERBB2 (Homo sapiens, UniProt P04626) | 98.7
SIK2 (Homo sapiens, UniProt Q9H0K1) | 94.8
PAK5 (Homo sapiens, UniProt Q9P286) | 79.4
PAK4 (Homo sapiens, UniProt O96013) | 90.6
EPHB3 (Homo sapiens, UniProt P54753) | 96.9
CLK2 (Homo sapiens, UniProt P49760) | 91.8
FLT1 (Homo sapiens, UniProt P17948) | 24.8
RPS6KA3 (Homo sapiens, UniProt P51812) | 91.4
EPHA6 (Homo sapiens, UniProt Q9UF33) | 89.8
CSNK1E (Homo sapiens, UniProt P49674) | 92.5
CLK1 (Homo sapiens, UniProt P49759) | 102
BRSK2 (Homo sapiens, UniProt Q8IWQ3) | 102
JAK2 (Homo sapiens, UniProt O60674) | 96.5
PAK6 (Homo sapiens, UniProt Q9NQU5) | 101
FES (Homo sapiens, UniProt P07332) | 96.6
JAK1 (Homo sapiens, UniProt P23458) | 91.8
MELK (Homo sapiens, UniProt Q14680) | 92.3
Cyclin-dependent kinase 5, with p35 (CDK5, Homo sapiens, UniProt Q00535) | 90.4
CSNK1D (Homo sapiens, UniProt P48730) | 98.1
MARK1 (Homo sapiens, UniProt Q9P0L2) | 94.7
ACVRL1 (Homo sapiens, UniProt P37023) | 98.9

Sample 3
Target: Diamine acetyltransferase 1 (Homo sapiens, UniProt P21673)
Action: inhibitor
Tested at: 10 µM
Baseline: control
Construct (P21673 1-171): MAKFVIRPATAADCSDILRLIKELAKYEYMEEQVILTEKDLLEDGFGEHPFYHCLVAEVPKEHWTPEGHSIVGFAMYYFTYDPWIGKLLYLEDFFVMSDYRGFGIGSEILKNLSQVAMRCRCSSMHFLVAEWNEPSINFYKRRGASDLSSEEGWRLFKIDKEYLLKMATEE
Structure (SMILES) | remaining activity [%]
COc1ccc(-c2cc(=O)c3c(OC)cc(OC)cc3o2)cc1 | 88.7
C/C=C/C(=O)C1=C(C)CCCC1(C)C | 82.6
O=c1c(O)c(-c2ccc(O)c(O)c2)oc2cc(O)ccc12 | 92.1
C=CCc1cc(OC)c(O[C@@H](C)[C@H](O)c2ccc(O)c(OC)c2)c(OC)c1 | 92.3
O=c1cc(-c2ccc(O)c(O)c2)oc2cc(O)ccc12 | 92.2
O=c1cc(-c2ccccc2)oc2cc(O)c(O)c(O)c12 | 84.8
CCCCCCCCCCCCCCCCCCCO | 104
CC(C)=CCc1c2ccoc2c(O)c2oc(=O)ccc12 | 83.1
CC(C)[C@@H](C)CC[C@@H](C)[C@H]1CCC2=C3CC[C@H]4C[C@@H](O)CC[C@]4(C)[C@H]3CC[C@@]21C | 82.5
c1ccc(Sc2ccccc2)cc1 | 88.2
CC(C)=CCC[C@@H](C(=O)O)[C@H]1CC[C@@]2(C)C3=CC[C@H]4C(C)(C)[C@@H](O)CC[C@]4(C)C3=CC[C@]12C | 101

Sample 4
Structure (SMILES): CC(C)CC(=O)N1CCc2nc(-c3ccc(Br)cc3)nc(N(C)Cc3ccccc3)c2C1
Read-out: cell-free assay
Technique: competition with immobilised ligand
Tested at: 0.1 µM
target | remaining binding [%]
BMPR2 (Homo sapiens, UniProt Q13873) | 99
PAK5 (Homo sapiens, UniProt Q9P286) | 100
PHKG1 (Homo sapiens, UniProt Q16816) | 100
SNRK (Homo sapiens, UniProt Q9NRH2) | 84
PRKCE (Homo sapiens, UniProt Q02156) | 100
MATK (Homo sapiens, UniProt P42679) | 100
PAK6 (Homo sapiens, UniProt Q9NQU5) | 100

Sample 5
SMILES: CCN(c1nc(N)c(C(=O)N=C(N)N)nc1Cl)C(C)C
Read-out: β-arrestin recruitment
Action: agonist
Technique: PRESTO-Tango
Tested at: 10 µM
Baseline: untreated
target | fold over basal
Mas-related G-protein coupled receptor member G (MRGPRG, Homo sapiens, UniProt Q86SM5) | 0.9
SUCNR1 (Homo sapiens, UniProt Q9BXA5) | 1.11 fold
Adhesion G protein-coupled receptor A3 (ADGRA3, Homo sapiens, UniProt Q8IWK6) | 0.9
HTR1A (Homo sapiens, UniProt P08908) | 0.63
PTGFR (Homo sapiens, UniProt P43088) | 0.55
HTR1F (Homo sapiens, UniProt P30939) | 0.38

Repeated from above (sample 1):
SMILES | viability [%]
O=C(O)CCn1c2c(c3ccccc31)C[C@H](NS(=O)(=O)c1ccc(F)cc1)CC2 | 84.6
O=c1oc2ccccc2c(O)c1Cc1c(O)c2ccccc2oc1=O | 40.5
COc1cc(/C=C/C(=O)O)ccc1O | 97.8
Cc1onc(-c2ccccc2Cl)c1C(=O)N[C@@H]1C(=O)N2[C@@H]1SC(C)(C)[C@@H]2C(=O)O | 108
CNNCc1ccc(C(=O)NC(C)C)cc1 | 112
Cc1ccc(-c2cc(C(F)(F)F)nn2-c2ccc(S(N)(=O)=O)cc2)cc1 | 15.4
Nc1c(Br)cc(Br)cc1CN[C@H]1CC[C@H](O)CC1 | 106
CC(C)N(CCCCOCC(=O)NS(C)(=O)=O)c1cnc(-c2ccccc2)c(-c2ccccc2)n1 | 67.4
CCOc1cc([C@@H](CS(C)(=O)=O)N2C(=O)c3cccc(NC(C)=O)c3C2=O)ccc1OC | 96.3
CNCC[C@@H](Oc1ccccc1C)c1ccccc1 | 77
